Measured values gathered from unrelated publications.
Every numbered part comes from another study and shows a few of its results, in no order.

Set 1
Target: Histone acetyltransferase KAT6A, winged helix 1, GST fusion (KAT6A, Homo sapiens, UniProt Q92794, residues 1-85)
Method: protein binding microarray
Form: double-stranded DNA, one strand shown
Sample: in vitro
Concentration: not given
Setting: 8-mer, flanks averaged, mean of 2 arrays, mostly near background
Reference: not given
Reading: higher = stronger binding
Construct (chain): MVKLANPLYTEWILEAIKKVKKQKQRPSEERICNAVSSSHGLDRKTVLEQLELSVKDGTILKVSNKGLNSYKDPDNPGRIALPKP
The E-score of `AACCTACT` is reported as -0.144.
For `AAATCAGC`, the E-score was -0.203.
With `GGGATACA` the E-score was -0.0856.
`AGGAGGTA` has an E-score of -0.188.
`GGAACTAC` has an E-score of -0.0243.
`CCAAGAGG` gave an E-score of -0.217.
For `CAACGAAC`, the E-score was -0.126.
`ACTCCGGC` has an E-score of 0.216.
`CAGAGAAA` gave an E-score of -0.113.
`CTACCCGC` has an E-score of 0.353.
`ACTGGTGA` gave an E-score of -0.0476.
For `AGCGAGAT`, the E-score was 0.101.
The E-score of `AGAGGAGA` is reported as -0.201.
For `GCGGCGCA`, the E-score was 0.434.
The E-score of `GACCGCCC` is reported as 0.32.
`AAAAAATC` has an E-score of -0.124.
`AACAGACG` gave an E-score of 0.0378.
`ATCGTAGA` has an E-score of -0.161.
The E-score of `AGCCTCTG` is reported as -0.126.
`ATTAGGGG` has an E-score of -0.179.
`CCCTAGAA` has an E-score of -0.0428.
The E-score of `ATGCACAG` is reported as -0.131.
For `GTCACCTA`, the E-score was -0.107.
For `GTTTCAGA`, the E-score was -0.0118.
`CATATTGC` has an E-score of 0.154.

Set 2
Target: Fragile X messenger ribonucleoprotein 1, C-terminal low-complexity region (Fmr1, Mus musculus, UniProt P35922)
Method: RNA Bind-n-Seq
Form: RNA
Sample: in vitro
Concentration: 200 nM
Setting: whole 134-nt RNA, ends assumed
Together with: 150 mM LiCl
Reference: input library
Reading: higher = stronger binding
Each molecule: 7-deaza-guanosine replaces G
The log2 enrichment of `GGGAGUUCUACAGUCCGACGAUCGUCCUGUGCUACACAUCGUAUGUACCGAAUCGGGCCCCCCGGCCCCCCGGCCCCCCGGGAAAGUAUUAUGUUACGCCGUUCGGAUCUGCAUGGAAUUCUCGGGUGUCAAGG` is reported as 1.07.
For `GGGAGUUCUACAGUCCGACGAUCUGGCCCUGGUGGCAUGCGGGGAGGAAGAGGUGGCCUCAUGGAUCGUGGUGGUCCCGGUGGAAUGUUCAGAGGUGGCCGUGGUGGAGACUGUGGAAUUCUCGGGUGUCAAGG`, the log2 enrichment was -0.799.
`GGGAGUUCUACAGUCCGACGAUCAGCCGAGCGGGAACGGAACCGACAGCUGGAGCGAGAGAAACGUCGGGAGCACAGUCGGGAGAGGGACAGGGAGAGAGAGAGAGAAAGGGAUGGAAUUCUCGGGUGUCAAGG` gave a log2 enrichment of 1.56.
`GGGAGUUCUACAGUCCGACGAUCCCUCAAGUCCUGUGCUACACAUCGUAUGUACCGAAUCGGGGUGGGUGGUGGGAAAGUAUUAUGUUACGCCGUUCGGAUCUGCACUUCCAGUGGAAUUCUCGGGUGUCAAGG` has a log2 enrichment of -0.429.
For `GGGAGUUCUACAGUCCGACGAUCCAAGUCCUGUGCUACACAUCGUAUGUACCGAAUCGGGUUUGGGUUUGGGGUUUGGGAAAGUAUUAUGUUACGCCGUUCGGAUCUGCACUUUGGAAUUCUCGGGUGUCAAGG`, the log2 enrichment was -1.76.
`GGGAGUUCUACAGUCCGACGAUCCCUCAAGUCCUGUGCUACACAUCGUAUGUACCGAAUCGGUUUGGUUUGGUGGAAAGUAUUAUGUUACGCCGUUCGGAUCUGCACUUCCAGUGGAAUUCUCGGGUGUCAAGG` has a log2 enrichment of -0.925.
For `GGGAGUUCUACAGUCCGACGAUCUCAAGUCCUGUGCUACACAUCGUAUGUACCGAAUCGGAGGUUUUUGGAAAAAGGAAAGUAUUAUGUUACGCCGUUCGGAUCUGCACUUCCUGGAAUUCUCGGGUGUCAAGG`, the log2 enrichment was -1.88.
With `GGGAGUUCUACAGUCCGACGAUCUGGGAGGUGGAUUUUGUUUAUUUUUUUAGCUCAUUUCCAGGGAUGGGAAUUUUUUUUUAAUAUGUGUCAUGAAUAAAGUUGUUUUUGAAAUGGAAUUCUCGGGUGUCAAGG` the log2 enrichment was -0.0515.

Set 3
Target: Interferon regulatory factor 7, full length, phosphomimetic (IRF7, Homo sapiens, UniProt Q92985, residues 1-503, S101K/S471D/S472D/S475D/S476D/S477D/S483D/S484D/S487D)
Method: protein-binding microarray
Form: double-stranded DNA, one strand shown
Sample: in vitro
Concentration: 250 nM
Setting: 60-bp whole probe
Together with: salmon DNA 0.4 mg/ml
Reference: random background probes
Reading: higher = stronger binding
Shared flanks, not repeated: GCCTAGCAC … GTCTTGATTCGCTTGACGCTGCTG
Residues (chain): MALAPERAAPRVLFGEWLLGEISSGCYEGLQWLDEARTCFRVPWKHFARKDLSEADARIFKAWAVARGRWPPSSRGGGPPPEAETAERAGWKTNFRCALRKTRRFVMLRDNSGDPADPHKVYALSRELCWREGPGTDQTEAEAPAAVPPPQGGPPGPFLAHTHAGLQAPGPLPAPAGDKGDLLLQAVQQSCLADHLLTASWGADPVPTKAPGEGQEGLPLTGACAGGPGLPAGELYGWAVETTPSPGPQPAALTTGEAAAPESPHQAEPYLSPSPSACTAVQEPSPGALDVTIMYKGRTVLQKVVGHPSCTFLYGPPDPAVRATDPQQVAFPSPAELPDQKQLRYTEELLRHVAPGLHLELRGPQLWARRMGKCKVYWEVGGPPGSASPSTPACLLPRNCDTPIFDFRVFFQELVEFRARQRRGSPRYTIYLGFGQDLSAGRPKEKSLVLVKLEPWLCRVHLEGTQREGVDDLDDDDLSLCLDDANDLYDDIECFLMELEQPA
`ATGTTCACTGTGTACCGTCTGTGCTAG` has a log fluorescence of 0.135 z-score.
With `TTAGGTTGCGGGACTGGGTTAGTGCTA` the log fluorescence was -0.584 z-score.
For `GACGGTCTCCATCTCCTGACGTGCTAG`, the log fluorescence was -0.176 z-score.
`TTAGGTATGGGGTTTCGGTTAGTGCTA` has a log fluorescence of 4.89 z-score.
The log fluorescence of `GGTGCCTCGGGTTCAGGGAGGTGCTAG` is reported as 0.0726 z-score.
`GACGGTATCGTGTTTCGGGACGTGCTA` has a log fluorescence of 1.65 z-score.
With `TCAATATTATATCTGTGACTGTGCTAG` the log fluorescence was 0.11 z-score.
`TCATTTTTGGTTTCTGGACTGTGCTAG` gave a log fluorescence of 2.18 z-score.
The log fluorescence of `TTAGGACTTCTTATCCTTTAGTGCTAG` is reported as -0.0388 z-score.
The log fluorescence of `TTAGGTTTCGGGTTTCGATTAGTGCTA` is reported as 13.2 z-score.
For `TTAGGTCTCCTTCTCGTTTAGTGCTAG`, the log fluorescence was 0.698 z-score.
For `TCACCTTTGCCTCCAGGACTGTGCTAG`, the log fluorescence was 0.122 z-score.
With `GACGATCTCGGACTGGGGACGTGCTAG` the log fluorescence was -0.165 z-score.
For `TCAACATTGCACAATCTTACTGTGCTA`, the log fluorescence was -0.274 z-score.
`TGAGGTCTCCTTATCCTTTAGTGCTAG` gave a log fluorescence of -0.0946 z-score.
For `AAGGTTACCCATCTCAAGTAGTGCTAG`, the log fluorescence was 0.438 z-score.

Set 4
Target: RING finger protein unkempt homolog, zinc fingers 1-6, GST-SBP tag (UNK, Homo sapiens, UniProt Q9C0B0, residues 30-357)
Method: RNA Bind-n-Seq
Form: RNA
Sample: in vitro
Concentration: not given
Setting: RNA with constant flanks, human and mouse sites, ends assumed
Reference: input RNA pool
Reading: higher = stronger binding
Residues (chain): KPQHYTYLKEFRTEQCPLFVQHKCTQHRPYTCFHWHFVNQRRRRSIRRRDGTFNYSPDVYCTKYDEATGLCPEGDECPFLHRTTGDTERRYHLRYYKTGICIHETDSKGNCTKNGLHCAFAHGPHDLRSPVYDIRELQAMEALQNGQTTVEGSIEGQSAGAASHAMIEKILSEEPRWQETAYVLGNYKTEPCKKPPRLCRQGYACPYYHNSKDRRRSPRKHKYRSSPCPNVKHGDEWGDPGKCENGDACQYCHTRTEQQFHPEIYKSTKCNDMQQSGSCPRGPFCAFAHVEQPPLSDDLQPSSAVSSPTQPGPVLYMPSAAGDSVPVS
`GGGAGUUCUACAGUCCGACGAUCAGAGUGGUUGUGGAACCUGUUGGCCCAGUUGGUUUCAAGCCAGAGACAUUCAGAAAGUUUUUAGCUCUAUAUUUGCAUGGUGCUGCGUGAGCGGAGGACCCCUCUGAAUCCUGAAACCCCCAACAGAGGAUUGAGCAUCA` gave a bound/input enrichment of 0.236 ratio.
For `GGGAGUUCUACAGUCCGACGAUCUUUCACAGAGGCUGACCACCUUACACUGCUGGGUGGUCACAACUGCUCACCAUGUGAACAUAGUACCUCAGUUCUGUCCUUGGCUGCAAUCGUUGUGUGCUCAGUGUUUUCUCAUAGGCACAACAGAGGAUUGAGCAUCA`, the bound/input enrichment was 0.129 ratio.
`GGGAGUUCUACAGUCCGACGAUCGCCAGCAUUCUGACCAACACAAUGGAAGAACUUGAAGAAUCUAGACAGAAAUGUCCGCCAUGCUGGUAUAGAUUUGCCAAUGUGUUCUUGAUCUGGGACUGCUGUGAUGCAUGGUUAAAACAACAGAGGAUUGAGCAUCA` gave a bound/input enrichment of 0.332 ratio.
`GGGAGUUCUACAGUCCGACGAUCUCUGACGGCCGCUCCUACUCCAGCAUCUGCGCGCUACGUCUGCGCGCCCGACAUGCACCCCGCGCGCACCAUGGCCACCUGCACAAGGCUCGCGAUGGGCCCUGCGAGUUCGCUCCCGUGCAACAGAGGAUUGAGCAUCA` gave a bound/input enrichment of 0.0496 ratio.
`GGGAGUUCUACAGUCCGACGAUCACAUCUUAUGAAAUGCUUAUUAAAGAGAAGUCUGUGUUCAAAAAAUUUAAUUGGAGAUACUUAGUAAUAGAUGAAGCUCACAGGAUCAAAAAUGAAAAAUCUAAGUUGUCAGAAAUAGUGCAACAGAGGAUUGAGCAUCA` gave a bound/input enrichment of 4.37 ratio.
`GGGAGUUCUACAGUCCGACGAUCAGACGACGAGAAUAUCAAUUAUCUGACUCUACCAAAUACUAUCUUAAUGACUUGGACCGCGUAGCUGACCCUGCCUACCUGCCUACGCAACAAGAUGUGCUUAGAGUUCGAGUCCCCACCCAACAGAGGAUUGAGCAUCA` has a bound/input enrichment of 0.326 ratio.
With `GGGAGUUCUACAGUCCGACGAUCAAUCAGAAUACCAGUGAUUUUGAGAAAACGGGAUUUUCUGAAGAAGUACUAGAUGAUGUAAUUAUAUUGAUUAAAUCGGAUAGCGUCCAUCUGUACUGUAAUCCUGUAAACUUUCGCUAUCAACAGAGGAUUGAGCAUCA` the bound/input enrichment was 0.152 ratio.
With `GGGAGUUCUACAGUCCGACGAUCAGGCUCCGGACAUGGACAUCUUCCAGCAACAGAUCUCGAGAAGACAGCUGGCUAAAAUCCUUAUUUGUCCGGAAAGUUGAUCCAAGAAAAGAUGCCCACUCCAAUCUCCUAGCCAAAAAGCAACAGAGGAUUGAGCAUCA` the bound/input enrichment was 0.0555 ratio.
With `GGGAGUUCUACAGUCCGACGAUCUCUCUUGCUACUUGCCAGUUAUCUGAGCCAUUGUUGUGGUUUAUCUUGAGAGUGUUGGAUACUAGUGAUGCAUUGAAAGCUUUCCAUGAUAUGGGUGGAGUUCAGCUCAUAUGCAAUAAUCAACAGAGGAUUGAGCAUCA` the bound/input enrichment was 0.305 ratio.
With `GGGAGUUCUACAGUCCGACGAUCAACUGGGGCUUGGACUCAUAUAGUCAUAAAGAAGAUGCUUCAGCAUUUCCAGGAAAACGAGCCUUAAUUUCAUUUCUUUCCUGGUUUGAUUAUUGUGAUCAGCUCAUUAAGGAAGCCCAACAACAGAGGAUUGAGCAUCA` the bound/input enrichment was 0.512 ratio.
For `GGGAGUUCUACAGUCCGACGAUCGGGGCUGCUGAGAUAUCCUGUGCCCUGGCAGUUAGCCAAGAGGCGGAUAAGUGCCCCACCUUAGAACAGUAUGCCAUGAGAGCGUUUGCCGACGCACUGGAGGUCAUCCCCAUGGCCCUCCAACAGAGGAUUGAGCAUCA`, the bound/input enrichment was 0.642 ratio.

Excerpt of the above (set 3):
With `TCAATATTATATCTGTGACTGTGCTAG` the log fluorescence was 0.11 z-score.
`TCATTTTTGGTTTCTGGACTGTGCTAG` gave a log fluorescence of 2.18 z-score.
The log fluorescence of `TTAGGACTTCTTATCCTTTAGTGCTAG` is reported as -0.0388 z-score.
